# Assay results pooled from the literature.
# Protocols differ between the studies behind these lines.
# MAST1: Microtubule-associated serine/threonine-protein kinase 1 (MAST1, Homo sapiens, UniProt Q9Y2H9)
# Sequence of UniProt Q9Y2H9 (whole entry, looked up): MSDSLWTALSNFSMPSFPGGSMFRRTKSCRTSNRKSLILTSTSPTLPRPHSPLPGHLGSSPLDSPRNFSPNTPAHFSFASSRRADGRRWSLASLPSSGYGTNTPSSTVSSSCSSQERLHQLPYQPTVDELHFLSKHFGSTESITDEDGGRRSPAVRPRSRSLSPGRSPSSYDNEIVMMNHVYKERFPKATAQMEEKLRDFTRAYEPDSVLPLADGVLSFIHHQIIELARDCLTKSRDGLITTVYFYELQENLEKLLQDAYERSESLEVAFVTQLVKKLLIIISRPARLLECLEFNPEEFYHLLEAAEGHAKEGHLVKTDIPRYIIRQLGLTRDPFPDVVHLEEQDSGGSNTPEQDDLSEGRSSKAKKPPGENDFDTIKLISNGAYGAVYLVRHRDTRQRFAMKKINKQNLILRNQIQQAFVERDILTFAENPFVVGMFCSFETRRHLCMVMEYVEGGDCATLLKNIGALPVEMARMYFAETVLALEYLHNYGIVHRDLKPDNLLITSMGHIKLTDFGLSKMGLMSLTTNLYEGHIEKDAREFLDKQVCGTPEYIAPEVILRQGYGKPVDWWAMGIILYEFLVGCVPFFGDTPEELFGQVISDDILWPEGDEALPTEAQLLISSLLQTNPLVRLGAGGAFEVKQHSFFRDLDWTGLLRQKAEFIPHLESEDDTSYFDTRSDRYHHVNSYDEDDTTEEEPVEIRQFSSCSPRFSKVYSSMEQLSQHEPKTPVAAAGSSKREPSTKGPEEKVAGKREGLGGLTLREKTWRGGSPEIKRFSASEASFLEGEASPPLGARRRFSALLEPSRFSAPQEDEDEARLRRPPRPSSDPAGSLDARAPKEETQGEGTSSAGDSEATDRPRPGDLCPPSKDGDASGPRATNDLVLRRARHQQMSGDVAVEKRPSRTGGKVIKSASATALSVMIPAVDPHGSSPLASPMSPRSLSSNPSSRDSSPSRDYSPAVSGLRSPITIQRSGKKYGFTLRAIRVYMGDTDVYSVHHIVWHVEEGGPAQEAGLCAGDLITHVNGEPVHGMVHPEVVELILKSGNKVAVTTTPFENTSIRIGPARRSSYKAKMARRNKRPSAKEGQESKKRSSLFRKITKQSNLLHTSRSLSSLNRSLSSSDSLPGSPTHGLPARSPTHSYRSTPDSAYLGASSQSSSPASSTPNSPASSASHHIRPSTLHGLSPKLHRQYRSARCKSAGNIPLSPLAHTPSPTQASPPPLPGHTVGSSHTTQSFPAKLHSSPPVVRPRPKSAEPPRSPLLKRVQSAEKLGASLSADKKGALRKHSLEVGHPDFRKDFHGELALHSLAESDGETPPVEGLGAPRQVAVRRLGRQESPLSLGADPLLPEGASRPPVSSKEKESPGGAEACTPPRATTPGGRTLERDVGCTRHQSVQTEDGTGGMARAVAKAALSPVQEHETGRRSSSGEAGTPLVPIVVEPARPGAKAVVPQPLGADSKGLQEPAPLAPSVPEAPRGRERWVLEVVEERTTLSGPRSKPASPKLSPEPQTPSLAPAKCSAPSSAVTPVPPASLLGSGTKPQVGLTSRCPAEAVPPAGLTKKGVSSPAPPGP
# Sequence of UniProt P49674 (whole entry, looked up): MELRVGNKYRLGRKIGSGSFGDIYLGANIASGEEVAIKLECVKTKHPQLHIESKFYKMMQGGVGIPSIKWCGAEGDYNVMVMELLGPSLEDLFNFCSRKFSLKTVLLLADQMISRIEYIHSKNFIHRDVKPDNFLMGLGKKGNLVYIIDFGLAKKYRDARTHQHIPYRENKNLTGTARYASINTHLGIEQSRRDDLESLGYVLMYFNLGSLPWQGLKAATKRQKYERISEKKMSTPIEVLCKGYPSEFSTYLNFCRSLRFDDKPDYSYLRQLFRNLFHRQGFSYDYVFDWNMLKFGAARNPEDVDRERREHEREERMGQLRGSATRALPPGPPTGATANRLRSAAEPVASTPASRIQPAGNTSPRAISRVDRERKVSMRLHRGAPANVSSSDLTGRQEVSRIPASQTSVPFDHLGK
# Sequence of UniProt P07711 (whole entry, looked up): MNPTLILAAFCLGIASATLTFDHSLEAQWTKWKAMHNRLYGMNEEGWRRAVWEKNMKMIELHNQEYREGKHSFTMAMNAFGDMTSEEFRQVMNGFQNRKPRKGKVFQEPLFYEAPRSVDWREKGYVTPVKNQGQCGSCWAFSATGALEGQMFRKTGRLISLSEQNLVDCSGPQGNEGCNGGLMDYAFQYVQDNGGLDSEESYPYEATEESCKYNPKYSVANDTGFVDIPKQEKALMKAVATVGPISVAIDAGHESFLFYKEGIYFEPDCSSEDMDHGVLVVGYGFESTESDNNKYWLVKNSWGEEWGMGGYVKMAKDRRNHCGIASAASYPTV
# Sequence of UniProt P29597 (whole entry, looked up): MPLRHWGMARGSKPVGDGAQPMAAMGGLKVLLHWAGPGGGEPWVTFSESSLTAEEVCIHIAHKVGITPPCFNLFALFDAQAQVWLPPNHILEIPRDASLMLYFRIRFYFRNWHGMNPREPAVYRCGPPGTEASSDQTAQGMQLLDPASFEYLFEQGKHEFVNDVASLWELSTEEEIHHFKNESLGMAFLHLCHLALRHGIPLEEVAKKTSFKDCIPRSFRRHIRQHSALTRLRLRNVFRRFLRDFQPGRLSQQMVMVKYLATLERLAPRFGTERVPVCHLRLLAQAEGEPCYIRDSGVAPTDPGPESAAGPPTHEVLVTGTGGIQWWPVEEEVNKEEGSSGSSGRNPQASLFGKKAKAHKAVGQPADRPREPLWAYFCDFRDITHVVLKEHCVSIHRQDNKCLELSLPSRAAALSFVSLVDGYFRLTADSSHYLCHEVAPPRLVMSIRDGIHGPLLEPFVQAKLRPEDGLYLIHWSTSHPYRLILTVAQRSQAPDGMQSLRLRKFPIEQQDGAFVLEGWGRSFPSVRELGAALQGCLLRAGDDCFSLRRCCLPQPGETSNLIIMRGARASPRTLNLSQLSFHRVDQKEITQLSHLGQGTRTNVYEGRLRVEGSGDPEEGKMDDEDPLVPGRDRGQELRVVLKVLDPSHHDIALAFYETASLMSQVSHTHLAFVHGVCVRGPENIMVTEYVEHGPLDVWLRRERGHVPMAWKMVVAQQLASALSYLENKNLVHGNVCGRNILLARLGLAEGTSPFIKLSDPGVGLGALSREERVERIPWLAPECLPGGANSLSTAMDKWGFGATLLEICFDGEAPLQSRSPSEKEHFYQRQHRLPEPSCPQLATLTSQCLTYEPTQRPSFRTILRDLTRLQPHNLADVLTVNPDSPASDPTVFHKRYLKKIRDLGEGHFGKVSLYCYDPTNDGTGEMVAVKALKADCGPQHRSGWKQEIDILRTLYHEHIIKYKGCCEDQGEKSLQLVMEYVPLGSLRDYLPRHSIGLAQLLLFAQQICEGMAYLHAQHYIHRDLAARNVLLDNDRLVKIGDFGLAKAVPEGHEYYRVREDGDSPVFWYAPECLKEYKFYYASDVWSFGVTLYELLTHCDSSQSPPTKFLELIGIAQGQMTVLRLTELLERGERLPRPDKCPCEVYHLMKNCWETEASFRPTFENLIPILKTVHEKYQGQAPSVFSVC
# Sequence of UniProt Q8NI60 (whole entry, looked up): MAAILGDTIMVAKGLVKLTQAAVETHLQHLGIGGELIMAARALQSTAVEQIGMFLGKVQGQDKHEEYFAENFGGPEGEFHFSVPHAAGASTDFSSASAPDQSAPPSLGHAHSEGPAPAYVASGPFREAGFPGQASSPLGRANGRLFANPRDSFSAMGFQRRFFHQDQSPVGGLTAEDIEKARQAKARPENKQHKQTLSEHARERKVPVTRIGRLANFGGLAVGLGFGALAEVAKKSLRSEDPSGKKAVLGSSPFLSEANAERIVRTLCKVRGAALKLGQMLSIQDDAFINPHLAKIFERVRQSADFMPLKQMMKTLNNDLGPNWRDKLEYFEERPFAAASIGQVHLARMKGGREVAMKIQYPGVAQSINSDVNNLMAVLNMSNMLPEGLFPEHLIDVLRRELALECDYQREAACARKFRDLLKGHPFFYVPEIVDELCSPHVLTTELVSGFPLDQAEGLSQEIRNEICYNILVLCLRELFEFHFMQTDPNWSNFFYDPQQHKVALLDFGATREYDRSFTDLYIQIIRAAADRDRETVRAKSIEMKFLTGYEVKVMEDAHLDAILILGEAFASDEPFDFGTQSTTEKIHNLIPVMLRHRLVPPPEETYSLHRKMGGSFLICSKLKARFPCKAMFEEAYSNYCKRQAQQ
# Sequence of UniProt P0DMS8 (whole entry, unmodified, looked up): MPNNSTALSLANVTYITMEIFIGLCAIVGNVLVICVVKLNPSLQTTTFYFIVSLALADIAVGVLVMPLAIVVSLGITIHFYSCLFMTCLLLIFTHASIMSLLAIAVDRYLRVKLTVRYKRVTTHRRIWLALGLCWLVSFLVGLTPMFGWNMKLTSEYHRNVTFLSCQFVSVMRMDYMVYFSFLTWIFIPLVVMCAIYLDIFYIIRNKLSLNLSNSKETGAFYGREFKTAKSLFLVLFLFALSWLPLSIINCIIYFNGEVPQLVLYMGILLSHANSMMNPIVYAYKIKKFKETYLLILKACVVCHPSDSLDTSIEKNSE
# Sequence of UniProt Q13177 (whole entry, looked up): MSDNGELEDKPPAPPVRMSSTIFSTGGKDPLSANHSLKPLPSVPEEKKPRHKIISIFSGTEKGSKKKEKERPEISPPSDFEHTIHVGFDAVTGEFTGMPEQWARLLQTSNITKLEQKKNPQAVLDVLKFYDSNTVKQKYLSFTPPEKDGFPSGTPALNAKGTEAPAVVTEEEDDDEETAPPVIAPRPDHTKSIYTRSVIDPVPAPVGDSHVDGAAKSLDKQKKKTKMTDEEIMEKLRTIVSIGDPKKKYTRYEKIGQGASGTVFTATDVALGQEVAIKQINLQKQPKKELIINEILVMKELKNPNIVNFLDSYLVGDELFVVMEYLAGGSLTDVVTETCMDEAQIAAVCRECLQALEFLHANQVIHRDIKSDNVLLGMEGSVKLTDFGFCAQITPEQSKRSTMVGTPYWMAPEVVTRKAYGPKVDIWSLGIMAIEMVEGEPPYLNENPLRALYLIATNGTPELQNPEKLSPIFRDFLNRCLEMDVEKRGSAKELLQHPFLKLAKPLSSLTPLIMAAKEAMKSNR
Compound,target or system,test,test system,setting,endpoint,value
COc1cc(O)cc(O)c1CCC(=O)c1ccc(O)cc1,"Procathepsin L (CTSL, Homo sapiens, UniProt P07711)","enzyme activity, inhibitor",,100 µM,remaining activity,91.7%
C=CC(=O)N1CCC(COCC(=O)N2CCN(c3nc(-c4cnc(N)nc4C(F)F)nc(N4CCOC[C@@H]4C)n3)CC2)CC1,"CSNK1E (Homo sapiens, UniProt P49674)","binding, competition with immobilised ligand",,1 µM,remaining binding,90%
COc1cccc(OC)c1-c1cc(C(=O)NC2(C(=O)O)C3CC4CC(C3)CC2C4)nn1-c1ccc(C(=O)N(C)CCCN(C)CCCN(C)C(=O)CN2CCN(CC(=O)[O-])CCN(CC(=O)[O-])CCN(CC(=O)[O-])CC2)cc1C(C)C.[177Lu+3] (stereo not drawn),HT-29 tumour model,,"host not given, heart","intravenous, 4 h, tumour-bearing",tracer uptake,1.7 %ID/g
COc1cc(-c2cncc3c2CN(C)Cc2cc(N4CCNCC4)ccc2-3)cc(OC)c1OC,"TNIK (Homo sapiens, UniProt Q9UKE5)","enzyme activity, inhibitor",,1 µM,remaining activity,40%
Cc1ccc(N(O)N=Nc2ccc(S(=O)(=O)Nc3cc(C)on3)cc2)cc1,,ABTS scavenging,,120 µg/mL,inhibition,35.3%
CN(C)c1ncnc2c1ncn2[C@@H]1O[C@H](CO)[C@@H](O)[C@H]1O,"ADORA3 (Homo sapiens, UniProt P0DMS8, M174Y)","G protein activation, agonist",,,EC50,8.5 µM
Cc1noc(NS(=O)(=O)c2ccc(N=NN(O)c3ccccc3)cc2)c1C,,ABTS scavenging,,180 µg/mL,inhibition,72.4%
Cc1cc([C@@H](C)Nc2ccccc2C(=O)O)c2nc(N3CCC(F)(F)CC3)c(C#N)c(=O)n2c1,"COQ8A (Homo sapiens, UniProt Q8NI60)","binding, competition with immobilised ligand",,1 µM,remaining binding,100%
Nc1ncnc2occ(-c3ccc(NC(=O)Nc4cc(C(F)(F)F)ccc4F)cc3)c12,MAST1,"cell-free assay, inhibitor",,20 µM,remaining signal,74%
CNc1ncc2c(/C=C/C(=O)N3CCC(OC)CC3)nn(Cc3cccc(C(F)(F)F)c3)c2n1,"PAK2 (Homo sapiens, UniProt Q13177)","enzyme activity, inhibitor, radiometric",,1 µM,remaining activity,97%
CCCCC(=O)Nc1ccc(-c2ccc3ncn(CCC)c(=O)c3c2)cn1,MAST1,"binding, competition with immobilised ligand",,0.5 µM,remaining binding,100%
C1=C/COCc2cc(ccc2OCCN2CCCC2)Nc2nccc(n2)-c2cccc(c2)COC/1,"Non-receptor tyrosine-protein kinase TYK2, JH2 (TYK2, Homo sapiens, UniProt P29597)",cell-free assay,,0.1 µM,remaining signal,2.2%

# Some of these lines once more:
Compound,target or system,test,test system,setting,endpoint,value
Cc1cc([C@@H](C)Nc2ccccc2C(=O)O)c2nc(N3CCC(F)(F)CC3)c(C#N)c(=O)n2c1,"COQ8A (Homo sapiens, UniProt Q8NI60)","binding, competition with immobilised ligand",,1 µM,remaining binding,100%
